# Published values of several laboratories.
# Each line is one published result; not all experiments were run side by side. “And” joins repeats or separate records; there may be more than shown. Numbers after ± are the reported error.
# MAPK9: Mitogen-activated protein kinase 9 (MAPK9, Homo sapiens, UniProt P45984)
# Sequence of UniProt P45984 (whole entry, looked up): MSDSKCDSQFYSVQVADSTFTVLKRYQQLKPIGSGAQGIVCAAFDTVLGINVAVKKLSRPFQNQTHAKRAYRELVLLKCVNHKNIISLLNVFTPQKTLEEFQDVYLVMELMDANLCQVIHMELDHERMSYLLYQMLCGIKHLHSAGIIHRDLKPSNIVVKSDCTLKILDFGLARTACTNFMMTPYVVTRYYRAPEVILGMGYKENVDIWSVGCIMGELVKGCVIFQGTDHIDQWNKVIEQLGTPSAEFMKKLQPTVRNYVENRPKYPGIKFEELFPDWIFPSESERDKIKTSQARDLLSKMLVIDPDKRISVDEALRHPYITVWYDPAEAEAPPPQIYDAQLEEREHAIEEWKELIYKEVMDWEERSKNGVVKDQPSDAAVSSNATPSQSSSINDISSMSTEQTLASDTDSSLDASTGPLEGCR
# SLC7A5: Large neutral amino acids transporter small subunit 1 (SLC7A5, Homo sapiens, UniProt Q01650)
# Sequence of UniProt Q01650 (whole entry, looked up): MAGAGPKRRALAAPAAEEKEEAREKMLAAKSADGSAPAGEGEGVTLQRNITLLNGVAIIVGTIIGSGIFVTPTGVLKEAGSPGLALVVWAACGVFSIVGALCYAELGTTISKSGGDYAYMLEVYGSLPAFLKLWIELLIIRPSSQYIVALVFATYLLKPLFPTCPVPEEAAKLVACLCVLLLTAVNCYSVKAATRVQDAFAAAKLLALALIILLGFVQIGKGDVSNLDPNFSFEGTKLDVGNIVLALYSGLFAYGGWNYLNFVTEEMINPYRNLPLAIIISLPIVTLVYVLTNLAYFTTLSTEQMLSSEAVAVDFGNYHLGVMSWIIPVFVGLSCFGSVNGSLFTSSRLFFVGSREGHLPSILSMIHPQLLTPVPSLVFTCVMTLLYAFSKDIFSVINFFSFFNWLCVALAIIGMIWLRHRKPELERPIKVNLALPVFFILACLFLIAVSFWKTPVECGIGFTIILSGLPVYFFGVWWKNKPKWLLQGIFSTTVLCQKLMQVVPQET
# PSMB5: Proteasome Macropain subunit MB1 (PSMB5, Homo sapiens, UniProt P28074)
# Sequence of UniProt P04818 (whole entry, looked up): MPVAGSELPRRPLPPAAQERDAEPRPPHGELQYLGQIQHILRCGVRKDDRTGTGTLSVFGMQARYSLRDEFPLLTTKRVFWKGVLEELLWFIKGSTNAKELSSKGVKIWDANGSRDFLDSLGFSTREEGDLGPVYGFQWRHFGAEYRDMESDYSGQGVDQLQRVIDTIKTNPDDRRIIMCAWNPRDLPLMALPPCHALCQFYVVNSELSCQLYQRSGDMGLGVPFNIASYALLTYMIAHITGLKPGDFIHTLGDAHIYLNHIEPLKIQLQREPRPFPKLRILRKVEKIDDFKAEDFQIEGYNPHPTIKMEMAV
# Sequence of UniProt P28074 (whole entry, looked up): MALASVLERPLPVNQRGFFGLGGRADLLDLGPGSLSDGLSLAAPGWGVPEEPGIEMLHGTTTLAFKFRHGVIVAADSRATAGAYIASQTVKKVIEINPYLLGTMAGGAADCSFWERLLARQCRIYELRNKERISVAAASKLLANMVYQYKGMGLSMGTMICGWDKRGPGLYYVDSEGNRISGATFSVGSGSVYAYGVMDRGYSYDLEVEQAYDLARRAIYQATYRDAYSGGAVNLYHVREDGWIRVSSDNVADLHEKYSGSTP
# Sequence of UniProt P0AGE0 (whole entry, looked up): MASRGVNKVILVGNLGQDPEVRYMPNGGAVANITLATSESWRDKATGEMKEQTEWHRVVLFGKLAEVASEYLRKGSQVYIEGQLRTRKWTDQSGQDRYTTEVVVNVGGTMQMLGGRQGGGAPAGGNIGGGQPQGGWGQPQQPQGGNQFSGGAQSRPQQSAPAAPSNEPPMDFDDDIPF
# Sequence of UniProt P24385 (whole entry, looked up): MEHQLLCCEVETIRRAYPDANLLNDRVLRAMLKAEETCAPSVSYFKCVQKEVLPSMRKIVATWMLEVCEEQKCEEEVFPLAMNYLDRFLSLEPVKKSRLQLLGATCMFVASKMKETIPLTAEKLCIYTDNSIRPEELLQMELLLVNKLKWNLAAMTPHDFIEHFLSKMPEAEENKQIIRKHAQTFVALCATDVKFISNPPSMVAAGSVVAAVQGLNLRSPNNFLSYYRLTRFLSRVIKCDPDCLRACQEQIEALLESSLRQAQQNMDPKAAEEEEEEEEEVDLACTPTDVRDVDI
# Sequence of UniProt P14061 (whole entry, looked up): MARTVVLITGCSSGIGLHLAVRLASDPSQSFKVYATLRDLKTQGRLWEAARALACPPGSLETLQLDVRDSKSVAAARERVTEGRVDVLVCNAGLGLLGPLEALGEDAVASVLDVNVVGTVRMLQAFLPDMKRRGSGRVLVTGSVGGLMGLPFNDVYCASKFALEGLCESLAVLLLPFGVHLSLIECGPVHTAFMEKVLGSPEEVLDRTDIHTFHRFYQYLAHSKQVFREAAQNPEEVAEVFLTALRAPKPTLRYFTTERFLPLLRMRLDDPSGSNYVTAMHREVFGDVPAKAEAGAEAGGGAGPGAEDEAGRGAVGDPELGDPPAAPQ
# Sequence of UniProt P16389 (whole entry, looked up): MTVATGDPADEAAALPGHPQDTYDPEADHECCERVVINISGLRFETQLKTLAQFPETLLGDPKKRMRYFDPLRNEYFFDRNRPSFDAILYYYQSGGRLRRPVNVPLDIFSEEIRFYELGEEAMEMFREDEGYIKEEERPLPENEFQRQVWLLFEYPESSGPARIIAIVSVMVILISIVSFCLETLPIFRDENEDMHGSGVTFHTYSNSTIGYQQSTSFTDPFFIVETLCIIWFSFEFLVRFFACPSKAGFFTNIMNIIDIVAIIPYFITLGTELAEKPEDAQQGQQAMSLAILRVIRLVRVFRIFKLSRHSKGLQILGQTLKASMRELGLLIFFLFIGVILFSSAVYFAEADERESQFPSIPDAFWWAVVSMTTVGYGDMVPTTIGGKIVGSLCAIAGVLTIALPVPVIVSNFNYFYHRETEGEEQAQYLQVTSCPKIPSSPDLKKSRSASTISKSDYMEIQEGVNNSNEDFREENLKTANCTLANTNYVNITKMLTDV
# Sequence of UniProt Q08499 (whole entry, looked up): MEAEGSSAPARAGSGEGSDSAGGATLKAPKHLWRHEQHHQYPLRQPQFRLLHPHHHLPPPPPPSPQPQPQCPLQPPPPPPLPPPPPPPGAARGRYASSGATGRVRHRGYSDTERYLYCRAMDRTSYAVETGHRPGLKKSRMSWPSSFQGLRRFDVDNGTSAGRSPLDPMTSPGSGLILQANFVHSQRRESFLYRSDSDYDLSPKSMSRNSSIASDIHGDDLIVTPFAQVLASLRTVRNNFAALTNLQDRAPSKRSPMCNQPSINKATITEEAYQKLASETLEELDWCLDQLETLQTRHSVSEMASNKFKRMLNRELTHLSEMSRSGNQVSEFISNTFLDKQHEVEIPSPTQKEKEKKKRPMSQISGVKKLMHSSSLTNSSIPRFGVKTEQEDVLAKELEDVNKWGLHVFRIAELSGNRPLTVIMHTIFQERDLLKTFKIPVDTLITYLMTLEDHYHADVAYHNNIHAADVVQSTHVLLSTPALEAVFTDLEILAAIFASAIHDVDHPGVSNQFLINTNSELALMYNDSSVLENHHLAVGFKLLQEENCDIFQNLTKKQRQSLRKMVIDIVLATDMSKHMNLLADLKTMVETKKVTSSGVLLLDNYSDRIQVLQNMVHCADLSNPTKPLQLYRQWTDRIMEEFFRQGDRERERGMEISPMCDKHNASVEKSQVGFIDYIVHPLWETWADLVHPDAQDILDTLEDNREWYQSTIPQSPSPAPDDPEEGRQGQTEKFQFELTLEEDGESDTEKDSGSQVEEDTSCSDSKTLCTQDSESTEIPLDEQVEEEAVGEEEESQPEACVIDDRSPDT
# Sequence of UniProt Q05097 (whole entry, looked up): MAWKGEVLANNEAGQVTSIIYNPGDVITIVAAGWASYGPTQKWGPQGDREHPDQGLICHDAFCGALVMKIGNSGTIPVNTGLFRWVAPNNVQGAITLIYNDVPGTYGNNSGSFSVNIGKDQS
# Sequence of UniProt P28062 (whole entry, looked up): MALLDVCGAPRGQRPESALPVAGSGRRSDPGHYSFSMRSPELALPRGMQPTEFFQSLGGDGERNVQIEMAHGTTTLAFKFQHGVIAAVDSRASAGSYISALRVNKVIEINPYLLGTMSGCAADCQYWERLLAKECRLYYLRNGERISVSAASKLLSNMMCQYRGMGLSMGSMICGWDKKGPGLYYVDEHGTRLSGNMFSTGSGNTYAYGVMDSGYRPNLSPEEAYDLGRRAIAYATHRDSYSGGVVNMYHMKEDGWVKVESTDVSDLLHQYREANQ
# Sequence of UniProt Q9HA64 (whole entry, looked up): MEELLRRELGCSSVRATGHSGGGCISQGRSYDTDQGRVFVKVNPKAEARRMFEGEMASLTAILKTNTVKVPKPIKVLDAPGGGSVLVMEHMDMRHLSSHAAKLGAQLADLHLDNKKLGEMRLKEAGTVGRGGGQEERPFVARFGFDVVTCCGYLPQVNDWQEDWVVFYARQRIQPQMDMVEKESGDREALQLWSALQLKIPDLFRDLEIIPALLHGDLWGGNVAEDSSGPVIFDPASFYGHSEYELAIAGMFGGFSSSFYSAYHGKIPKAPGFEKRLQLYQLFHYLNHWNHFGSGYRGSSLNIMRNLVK
# Sequence of UniProt P25774 (whole entry, looked up): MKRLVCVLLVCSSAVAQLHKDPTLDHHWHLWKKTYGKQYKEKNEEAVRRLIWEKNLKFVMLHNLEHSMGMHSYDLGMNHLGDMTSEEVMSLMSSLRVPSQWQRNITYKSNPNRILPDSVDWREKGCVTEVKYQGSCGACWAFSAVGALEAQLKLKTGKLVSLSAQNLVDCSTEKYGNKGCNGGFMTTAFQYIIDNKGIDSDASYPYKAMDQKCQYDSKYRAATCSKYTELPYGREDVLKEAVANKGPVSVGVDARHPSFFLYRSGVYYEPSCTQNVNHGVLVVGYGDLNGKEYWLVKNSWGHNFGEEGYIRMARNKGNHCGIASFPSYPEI
# Sequence of UniProt Q04760 (whole entry, looked up): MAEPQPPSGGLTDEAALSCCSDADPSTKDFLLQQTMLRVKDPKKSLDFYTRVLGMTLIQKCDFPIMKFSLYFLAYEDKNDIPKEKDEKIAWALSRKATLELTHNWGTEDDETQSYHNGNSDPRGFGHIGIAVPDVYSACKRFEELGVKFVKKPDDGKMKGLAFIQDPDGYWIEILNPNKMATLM
Structure (SMILES),target,assay,system,setting,IC50
C[C@]12CC[C@@H]3c4ccc(O)cc4CC[C@H]3[C@@H]1[C@H](OCC(=O)N1CCOCC1)CC2=O,"17-beta-hydroxysteroid dehydrogenase type 1 (HSD17B1, Homo sapiens, UniProt P14061)","enzyme activity, inhibitor, radiometric",,,5.6 to 7 µM
C=C[C@]1(C)CC[C@H]2C(=C[C@H]3OC(=O)[C@@]4(C)C(=O)CC[C@@]2(C)[C@@H]34)C1,Saccharomyces cerevisiae alpha-glucosidase,"enzyme activity, inhibitor",,with: pNPG substrate,991.95 ± 0.96 µg/mL
C=CCc1ccc(OCc2nnc(SCC(=O)Nc3ccccc3C(=O)OC)o2)c(OC)c1,"Thymidylate synthase (TYMS, Homo sapiens, UniProt P04818)","enzyme activity, inhibitor",,,1.25 µM and 1.21 µM
N=C(NCCCCC(N)C(N)=O)NCCCSCC1OC(n2cnc3c(N)ncnc32)C(O)C1O (centres unmarked),"Protein arginine N-methyltransferase 1 (PRMT1, Homo sapiens, UniProt Q99873)","enzyme activity, inhibitor, fluorescence",,,3 µM
CCCc1nnc(-c2cccc(Nc3ncnn4ccc(CN5CCC(N)CC5)c34)c2)s1,"AP2-associated protein kinase 1 (AAK1, Homo sapiens, UniProt Q2M2I8)","enzyme activity, inhibitor",,,0.054 µM
NS(=O)(=O)c1ccc(/N=N/c2cc3ccccc3c(C=O)c2O)cc1,"Lactoylglutathione lyase (GLO1, Homo sapiens, UniProt Q04760)","enzyme activity, inhibitor",,,39 µM
Cc1ccc(CNC(=O)C(CCc2ccccc2)NC(=O)C(NC(=O)c2ccc(OCc3ccc(C(C)(C)C)cc3)cc2)C(C)O)cc1 (centres unmarked),"Proteasome component C5/PSMB8 (Homo sapiens, UniProt P20618+P28062)",inhibitor,,,0.027 µM
CC(C)C[C@@H](NC(=O)[C@@H](Cc1ccccc1)NC(=O)[C@H]1CCCN1C(=O)[C@@H](CCC(N)=O)NC(=O)[C@H](NC(=O)[C@H]1CCCN1C(=O)[C@@H](CCCNC(=N)N)NC(=O)[C@@H](CO)NC(=O)[C@@H](CCC(N)=O)NC(=O)[C@@H](CC(=O)O)NC(=O)[C@H](N)[C@H](C)O)C(C)C)C(=O)N[C@H](CC(N)=O)C(=O)N[C@H](CC(C)C)C(=O)N[C@@H](C(=O)N[C@@H](C(=O)N1CCC[C@@H]1C(=O)N[C@H](CCCNC(=N)N)C(=O)N[C@H](CCCCN)C(=O)N1CCC[C@@H]1C(=O)N[C@H](CCCNC(=N)N)C(=O)N1CCC[C@@H]1C(=O)N1CCC[C@@H]1C(=O)N[C@H](CCCNC(=N)N)C(=O)N[C@H](CCCNC(=N)N)C(=O)N[C@H](CCCNC(=N)N)C(=O)N[C@H](CCC(N)=O)C(=O)N[C@H](CCCNC(=N)N)C(=O)N[C@H](CCCNC(=N)N)C(=O)N[C@H](CCCCN)C(=O)N[C@H](CCCCN)C(=O)N[C@H](CCCNC(=N)N)C(=O)NCC(N)=O)[C@H](C)O)[C@H](C)O,MAPK9,"kinase activity, inhibitor, radiometric",,"pH 7.5, 30 °C, with: GST-c-Jun substrate",355 ± 79 µM
N[C@@H](Cc1c[nH]c2ccc(OCc3ccccc3-c3cccs3)cc12)C(=O)O,SLC7A5,"transporter uptake, inhibitor, radiometric",,,12 µM
COC(=O)Cc1c(C)c2cc(Cl)c(OCC(N)=O)cc2oc1=O,"Cyclin-dependent kinase 9 (CDK9, Homo sapiens, UniProt P50750)","enzyme activity, inhibitor, ATP luminescence",,,6 µM
"CC(=O)C12NC(C)(C)CC1(C)C(=O)C1=C2c2c(c3c4n2C(C)(C)CC2=C4C4(CC(C)(C)NC(C)(C4)C2=O)CC3(C)C)C(=O)C(C)(C)N1 (single isomer, unassigned; (-))","Potassium voltage-gated channel subfamily A member 2 (KCNA2, Homo sapiens, UniProt P16389)","ion current, inhibitor, patch clamp",,,0.91 µM
C=C(NC(=O)C(=C)NC(=O)c1csc(C2=NC3c4csc(n4)C4NC(=O)c5csc(n5)C(C(C)(O)C(C)O)NC(=O)C5CSC(=N5)C(=CC)NC(=O)C(C(C)O)NC(=O)c5csc(n5)C3(CC2)NC(=O)C(Cc2ccc(O)cc2)NC(=O)C(=C)NC(=O)C(C)NC(=O)C(C(C)CC)NC2C=Cc3c(C(C)O)cc(nc3C2O)C(=O)OC4C)n1)C(N)=O (centres unmarked),PSMB5,"chymotrypsin-like activity, inhibitor",purified 20S proteasome,"15 min preincubation, 37 °C, with: Suc-Leu-Leu-Val-Tyr-AMC substrate",0.63 ± 0.09 µM
C=C(NC(=O)C(=C)NC(=O)c1csc(C2=NC3c4csc(n4)C4NC(=O)c5csc(n5)C(C(C)(O)C(C)O)NC(=O)C5CSC(=N5)C(=CC)NC(=O)C(C(C)O)NC(=O)c5csc(n5)C3(CC2)NC(=O)C(C)NC(=O)C(=C)NC(=O)C(=C)NC(=O)C(C(C)CC)NC2C=Cc3c(C(C)O)cc(nc3C2O)C(=O)OC4C)n1)C(N)=O (centres unmarked),PSMB5,"chymotrypsin-like activity, inhibitor",purified human 20S proteasome,"37 °C, 15 min preincubation, with: Suc-Leu-Leu-Val-Tyr-AMC",0.99 ± 0.01 µM
C#Cc1cccc(Nc2ncnc3cc(OC)c(OCCCN4CCOCC4)cc23)c1,"Platelet-derived growth factor receptor alpha (PDGFRA, Homo sapiens, UniProt P16234)","enzyme activity, inhibitor",,"30 min, with: ATP 80.8 µM",3.45 ± 0.21 µM
OC[C@H]1O[C@@H](OCc2cn([C@H]3[C@H](O)[C@@H](O)[C@H](c4cn([C@H]5[C@H](O)[C@@H](O)[C@H](n6cc([C@@H]7O[C@H](Cn8cc(-c9ccccc9)nn8)[C@@H](n8cc(CO[C@@H]9O[C@H](CO)[C@H](O)[C@H](O)[C@H]9O)nn8)[C@H](O)[C@H]7O)nn6)O[C@@H]5CO)nn4)O[C@@H]3Cn3cc(-c4ccccc4)nn3)nn2)[C@H](O)[C@@H](O)[C@H]1O,"PA-I galactophilic lectin (lecA, Pseudomonas aeruginosa, UniProt Q05097)","protein-protein interaction, inhibitor, ELISA",,,0.0049 µM
CC[C@H](C)[C@H](NC(=O)[C@H](CO)NC(=O)[C@H](Cc1ccc(O)cc1)NC(=O)[C@H](CC(=O)O)NC(=O)[C@H](CO)NC(=O)[C@@H](NC(=O)[C@H](Cc1ccccc1)NC(=O)[C@@H](NC(=O)CNC(=O)[C@H](CCC(=O)O)NC(=O)[C@H](C)NC(=O)[C@@H](N)Cc1ccc(O)cc1)[C@@H](C)O)[C@@H](C)CC)C(=O)N[C@@H](C)C(=O)N[C@@H](CCSC)C(=O)N[C@@H](CC(=O)O)C(=O)N[C@@H](CCCCN)C(=O)N[C@H](C(=O)N[C@@H](CCCNC(=N)N)C(=O)N[C@@H](CCC(N)=O)C(=O)N[C@@H](CCC(N)=O)C(=O)N[C@@H](CC(=O)O)C(=O)N[C@@H](Cc1ccccc1)C(=O)N[C@H](C(=O)N[C@@H](CC(N)=O)C(=O)N[C@@H](Cc1c[nH]c2ccccc12)C(=O)N[C@@H](CC(C)C)C(=O)N[C@@H](CC(C)C)C(=O)N[C@@H](C)C(=O)N[C@@H](CCC(N)=O)C(=O)N[C@@H](CCCNC(=N)N)C(=O)NCC(=O)N[C@@H](CCCCN)C(=O)N[C@@H](CCCCN)C(=O)N[C@@H](CO)C(=O)N[C@@H](CC(=O)O)C(=O)N[C@@H](Cc1c[nH]c2ccccc12)C(=O)N[C@@H](CCCCN)C(=O)N[C@@H](Cc1c[nH]cn1)C(=O)N[C@@H](CC(N)=O)C(=O)N[C@H](C(=O)N[C@H](C(=O)N[C@@H](CCC(N)=O)C(=O)O)[C@@H](C)O)[C@@H](C)CC)C(C)C)[C@@H](C)CC,"Gastric inhibitory polypeptide receptor (Rattus norvegicus, UniProt P43219)","ligand displacement in cells, radioligand",,,0.00126 µM
N#C/C(C(=O)c1ccc(Cl)cc1Cl)=C1\NC(=O)c2ccccc2N1,"Cytoplasmic dynein 2 heavy chain 1 (DYNC2H1, Homo sapiens, UniProt Q8NCM8)","ATPase activity, inhibitor",,,55 µM
N=C(N)NCCC[C@H](NC(=O)[C@H](CC(=O)O)NC(=O)[C@H](CC(N)=O)NC(=O)[C@H](CCCNC(=N)N)NC(=O)[C@@H]1CCCN1C(=O)[C@H](CCCCN)NC(=O)[C@H](CCCCN)NC(=O)[C@H](CCC(N)=O)NC(=O)[C@H](CC(=O)O)NC(=O)[C@@H](N)Cc1c[nH]c2ccccc12)C(=O)O,"Neuropilin-1 (NRP1, Homo sapiens, UniProt O14786)","inhibitor, plate binding",,"1 h, 25 °C",28 µM
OC[C@H]1[C@@H](O)[C@@H](O)CN1CCc1ccccc1,"Golgi alpha-mannosidase IIb (Drosophila melanogaster, UniProt Q9VF33)",,,"pH 6.0, 0.5 mM CoCl2, with: 2 mM pNP-Man",190 µM
Cc1ccc2nc(-c3ccc(N=NNc4ccc(-c5nc6ccc(C)c(S(=O)(=O)O)c6s5)cc4)cc3)sc2c1S(=O)(=O)O,"Single-stranded DNA-binding protein (ssb, Escherichia coli, UniProt P0AGE0)","DNA binding, fluorescence polarization",,with: Cy5-dT15 DNA 5 nM,2.9 ± 0.2 µM
COc1ccc(N2C(=O)CSC2c2cccc(Br)c2)c(OC)c1 (centres unmarked),"ACTR2/ACTR3 (Bos taurus, UniProt A7MB62+P61157)","actin polymerization, inhibitor, pyrenyl-actin",,"3 µM actin, 30% pyrenyl, with: 5 nM Arp2/3 complex, 1 µM N-WASp-VCA",11 µM
CCCCCCCCCCCCCC(=S)NCCCC[C@H](NC(=O)CNC(=O)CN)C(=O)NCC(=O)O,"NAD-dependent protein deacetylase sirtuin-2 (SIRT2, Homo sapiens, UniProt Q8IXJ6)",,,,0.7 µM
COC(=O)CCSc1nc2n(n1)C(c1cccc(OC)c1)C(C(=O)Nc1cncc(C)c1)=C(C)N2 (centres unmarked),"Serine/threonine-protein kinase mTOR (MTOR, Homo sapiens, UniProt P42345)","enzyme activity, inhibitor, TR-FRET",,,0.0071 µM
CCCCCCc1ccc(S(=O)(=O)N2CC2C(=O)N(CC)CC)cc1 (centres unmarked),"Protein disulfide-isomerase A3 (PDIA3, Homo sapiens, UniProt P30101)","enzyme activity, inhibitor, absorbance",,pH 7.6,> 200 µM
C=C(C)C1CCc2c(c(C)cc(O)c(=O)c2O)C1 (centres unmarked),"Ribonuclease HI (rnhA, Escherichia coli, UniProt P0A7Y4)","RNase H activity, inhibitor",,,40 µM
Nc1cc(COc2c(Cl)cc(C[C@H](N)C(=O)O)cc2Cl)c2oc(-c3ccccc3)nc2c1,SLC7A5,"transporter uptake, inhibitor, radiometric",,,0.1 to 0.2 µM
Cc1cc(NC(=O)c2cccc(-n3cc(NC(=O)Nc4ccccc4)cn3)c2)ccn1,MAPK9,"enzyme activity, inhibitor",,,0.132 µM
[2H]C1([2H])CC[C@@H](C[C@@H](C#N)NC(=O)[C@@H]2[C@@H]3[C@H](CN2C(=O)[C@@H](NC(=O)C(F)F)C(C)(C)C)C3(C)C)C(=O)N1,"Cathepsin S (CTSS, Homo sapiens, UniProt P25774)","enzyme activity, inhibitor",,,42 µM
CC[C@H](C)[C@H](NC(=O)[C@H](CC(C)C)NC(=O)[C@H](CCCNC(=N)N)NC(=O)c1ccc(CN2CCN(C)CC2)cc1)C(=O)N[C@@H](Cc1ccccc1)C(N)=O,"G1/S-specific cyclin-D1, with CDK4 (Homo sapiens, UniProt P24385)","binding to cyclin groove, inhibitor, fluorescence polarization competition",,,11.3 ± 1.48 µM
CN(C)c1ccc2c(c1)C(=O)N(C(C(=O)O)C(C)(C)S)C2=O (centres unmarked),"Metallo-beta-lactamase type 2 (blaNDM-1, Klebsiella pneumoniae, UniProt C7C422)","enzyme activity, inhibitor",,pH 7,> 150 µM
CCCCCC(O)/C=C/C=O (centres unmarked),"Ketosamine-3-kinase, C24 (FN3KRP, Homo sapiens, UniProt Q9HA64)","cysteine probe labelling, competitive isoTOP-ABPP",MDA-MB-231 proteome,,6 to 23 µM
Oc1ccc(C#Cc2cccc3c2C(c2ccc(O)cc2)(c2ccc(O)cc2)c2cc(O)ccc2-3)cc1,"3',5'-cyclic-AMP phosphodiesterase 4D (PDE4D, Homo sapiens, UniProt Q08499)","enzyme activity, inhibitor, fluorescence",,,0.18 µM

# Excerpt of the above:
Structure (SMILES),target,assay,system,setting,IC50
CC[C@H](C)[C@H](NC(=O)[C@H](CO)NC(=O)[C@H](Cc1ccc(O)cc1)NC(=O)[C@H](CC(=O)O)NC(=O)[C@H](CO)NC(=O)[C@@H](NC(=O)[C@H](Cc1ccccc1)NC(=O)[C@@H](NC(=O)CNC(=O)[C@H](CCC(=O)O)NC(=O)[C@H](C)NC(=O)[C@@H](N)Cc1ccc(O)cc1)[C@@H](C)O)[C@@H](C)CC)C(=O)N[C@@H](C)C(=O)N[C@@H](CCSC)C(=O)N[C@@H](CC(=O)O)C(=O)N[C@@H](CCCCN)C(=O)N[C@H](C(=O)N[C@@H](CCCNC(=N)N)C(=O)N[C@@H](CCC(N)=O)C(=O)N[C@@H](CCC(N)=O)C(=O)N[C@@H](CC(=O)O)C(=O)N[C@@H](Cc1ccccc1)C(=O)N[C@H](C(=O)N[C@@H](CC(N)=O)C(=O)N[C@@H](Cc1c[nH]c2ccccc12)C(=O)N[C@@H](CC(C)C)C(=O)N[C@@H](CC(C)C)C(=O)N[C@@H](C)C(=O)N[C@@H](CCC(N)=O)C(=O)N[C@@H](CCCNC(=N)N)C(=O)NCC(=O)N[C@@H](CCCCN)C(=O)N[C@@H](CCCCN)C(=O)N[C@@H](CO)C(=O)N[C@@H](CC(=O)O)C(=O)N[C@@H](Cc1c[nH]c2ccccc12)C(=O)N[C@@H](CCCCN)C(=O)N[C@@H](Cc1c[nH]cn1)C(=O)N[C@@H](CC(N)=O)C(=O)N[C@H](C(=O)N[C@H](C(=O)N[C@@H](CCC(N)=O)C(=O)O)[C@@H](C)O)[C@@H](C)CC)C(C)C)[C@@H](C)CC,"Gastric inhibitory polypeptide receptor (Rattus norvegicus, UniProt P43219)","ligand displacement in cells, radioligand",,,0.00126 µM
Cc1ccc2nc(-c3ccc(N=NNc4ccc(-c5nc6ccc(C)c(S(=O)(=O)O)c6s5)cc4)cc3)sc2c1S(=O)(=O)O,"Single-stranded DNA-binding protein (ssb, Escherichia coli, UniProt P0AGE0)","DNA binding, fluorescence polarization",,with: Cy5-dT15 DNA 5 nM,2.9 ± 0.2 µM
